Measured values from different studies.
Each numbered part is a random draw from the data of one study; scales do not carry over between parts. Positions count from the first letter of the parent shown.

Study 1
Target: CCNE1, cyclin fold, Cln2 fusion (human)
Method: yeast growth competition, sequencing
Medium: yeast
Setting: strong parent motif
Baseline: not given
Reading: higher = stronger binding
Quantity: normalised enrichment score
Parent: viral docking peptide; KGVKRKLFAEDSS
KGSKRKLFAEDSS [V3S]: 2.25
KGVKRKLFSEDSS [A9S]: 7.46
KGVKRKLFAERSS [D11R]: 6.24
KGVGRKLFAEDSS [K4G]: 1.84
KGLKRKLFAEDSS [V3L]: 2.21
KGVKRKKFAEDSS [L7K]: 0.261
KPVKRKLFAEDSS [G2P]: 7.71
KGVKVKLFAEDSS [R5V]: 1.61

Study 2
Target: UDP-N-acetylglucosamine--peptide N-acetylglucosaminyltransferase 110 kDa subunit (OGT, Homo sapiens, UniProt O15294)
Sequence of UniProt O15294 (whole entry, looked up): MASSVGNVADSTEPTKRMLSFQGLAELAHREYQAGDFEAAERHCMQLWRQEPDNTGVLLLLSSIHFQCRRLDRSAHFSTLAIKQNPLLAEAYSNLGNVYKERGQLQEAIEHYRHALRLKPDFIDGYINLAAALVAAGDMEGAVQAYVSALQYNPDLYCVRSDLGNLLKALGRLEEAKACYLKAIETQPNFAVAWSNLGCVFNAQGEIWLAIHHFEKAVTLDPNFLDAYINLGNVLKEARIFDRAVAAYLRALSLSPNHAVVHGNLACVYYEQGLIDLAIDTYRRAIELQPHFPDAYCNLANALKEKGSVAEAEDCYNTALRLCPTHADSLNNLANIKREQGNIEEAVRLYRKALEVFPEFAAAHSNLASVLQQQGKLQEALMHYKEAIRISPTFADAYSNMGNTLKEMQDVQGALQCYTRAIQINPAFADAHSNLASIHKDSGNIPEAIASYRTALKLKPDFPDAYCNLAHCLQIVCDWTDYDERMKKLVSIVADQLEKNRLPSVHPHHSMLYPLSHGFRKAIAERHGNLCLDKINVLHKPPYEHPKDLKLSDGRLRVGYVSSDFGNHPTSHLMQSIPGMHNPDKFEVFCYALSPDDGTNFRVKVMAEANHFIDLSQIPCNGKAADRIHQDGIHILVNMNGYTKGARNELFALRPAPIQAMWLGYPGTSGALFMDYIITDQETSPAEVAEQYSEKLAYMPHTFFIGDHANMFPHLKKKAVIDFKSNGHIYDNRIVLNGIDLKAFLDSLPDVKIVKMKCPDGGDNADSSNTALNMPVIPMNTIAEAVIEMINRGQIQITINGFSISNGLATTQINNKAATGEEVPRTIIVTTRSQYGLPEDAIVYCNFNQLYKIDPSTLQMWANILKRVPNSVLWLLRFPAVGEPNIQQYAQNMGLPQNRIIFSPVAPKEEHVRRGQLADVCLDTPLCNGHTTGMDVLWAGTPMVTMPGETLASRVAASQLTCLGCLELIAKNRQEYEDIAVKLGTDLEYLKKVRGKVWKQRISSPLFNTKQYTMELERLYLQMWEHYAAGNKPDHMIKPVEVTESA
Read-out: binding
Method: phage display NGS
Molecule type: peptide
Tested at: concentration not given
Baseline: input library
Quantity: enrichment fold change
HVQDLAVYHSHHWH: 3.62
HVEHVMHRSQAHDTH: 4.25
WMPVNYNGKHHSHTV: 59.3
HWNEGTHSTWFPHMH: 4.6
HWDHWQHTINHNVDG: 7.48
HPNPPKDHWFRTHH: 2.47
HTVDFRWEHRWHPHS: 3.37
YAHTHMYNHPAIYTH: 3.42

Study 3
Target: tungstate, free oxyanion
Method: microfluidic competitive inhibition
Medium: in vitro, cell-free expressed
Tested at: not given
Setting: derived from inhibition constants, unchanged parent 2230 nM
Reading: lower = stronger binding
Quantity: oxyanion analog dissociation constant
Parent: PafA, mature enzyme, eGFP fusion (Elizabethkingia meningoseptica, UniProt Q9KJX5); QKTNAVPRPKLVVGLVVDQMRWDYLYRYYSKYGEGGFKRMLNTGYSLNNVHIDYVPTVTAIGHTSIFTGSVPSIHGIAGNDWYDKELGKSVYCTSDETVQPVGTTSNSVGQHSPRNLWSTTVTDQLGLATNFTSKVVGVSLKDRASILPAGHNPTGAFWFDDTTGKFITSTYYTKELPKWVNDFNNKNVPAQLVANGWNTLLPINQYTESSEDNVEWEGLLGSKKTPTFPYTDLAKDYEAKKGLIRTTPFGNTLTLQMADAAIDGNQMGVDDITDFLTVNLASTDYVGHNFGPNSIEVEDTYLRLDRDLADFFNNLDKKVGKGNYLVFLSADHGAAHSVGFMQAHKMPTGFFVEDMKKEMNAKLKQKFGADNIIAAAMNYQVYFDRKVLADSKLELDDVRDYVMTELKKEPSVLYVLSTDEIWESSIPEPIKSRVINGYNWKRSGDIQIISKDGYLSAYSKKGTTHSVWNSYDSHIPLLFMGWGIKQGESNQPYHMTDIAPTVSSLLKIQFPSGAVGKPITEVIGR
T248V: 2.23 µM
L303G: 2.61 µM
W469G: 0.372 µM
Y415G: 1.01 µM
Q125G: 2.01 µM
E176V: 2.44 µM
G265V: 2.86 µM
Q267G: 2.25 µM

Mixed results
C[N+]1(C)[C@@H]2CC[C@H]1C[C@@H](OC(=O)C(O)c1ccccc1)C2 (stereo partly shown)
GFP-positive cells (HEK-293T; pseudovirus infection, FDA-approved drug library counter-screen; VSV pseudotyped with VSV-G; 10 µM, 16 h; baseline: vehicle-treated): 115%

For quick reference, copied from above (study 3):
G265V: 2.86 µM
